Published values gathered from unrelated publications.
Every numbered part comes from another study and shows a few of its results, in no order.
Sequence of UniProt Q9UK32 (whole entry, looked up): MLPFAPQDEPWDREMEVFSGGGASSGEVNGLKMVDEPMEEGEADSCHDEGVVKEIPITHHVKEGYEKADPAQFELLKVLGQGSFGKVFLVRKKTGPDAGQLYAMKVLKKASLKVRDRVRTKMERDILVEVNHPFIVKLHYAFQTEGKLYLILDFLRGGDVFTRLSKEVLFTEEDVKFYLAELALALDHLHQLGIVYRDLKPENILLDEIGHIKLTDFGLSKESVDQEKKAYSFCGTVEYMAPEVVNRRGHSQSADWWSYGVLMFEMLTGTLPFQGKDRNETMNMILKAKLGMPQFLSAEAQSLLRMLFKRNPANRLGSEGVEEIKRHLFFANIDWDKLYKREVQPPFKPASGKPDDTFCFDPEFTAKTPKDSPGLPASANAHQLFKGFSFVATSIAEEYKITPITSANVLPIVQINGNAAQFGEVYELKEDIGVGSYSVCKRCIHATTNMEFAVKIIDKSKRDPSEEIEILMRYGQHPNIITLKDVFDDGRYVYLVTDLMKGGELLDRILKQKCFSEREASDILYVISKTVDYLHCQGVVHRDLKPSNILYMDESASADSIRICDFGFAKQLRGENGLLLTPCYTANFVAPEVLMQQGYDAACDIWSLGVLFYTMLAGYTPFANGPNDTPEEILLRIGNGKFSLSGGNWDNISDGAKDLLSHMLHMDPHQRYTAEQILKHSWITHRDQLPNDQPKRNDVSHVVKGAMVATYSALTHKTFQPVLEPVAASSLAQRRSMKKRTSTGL
Sequence of UniProt O95819 (whole entry, looked up): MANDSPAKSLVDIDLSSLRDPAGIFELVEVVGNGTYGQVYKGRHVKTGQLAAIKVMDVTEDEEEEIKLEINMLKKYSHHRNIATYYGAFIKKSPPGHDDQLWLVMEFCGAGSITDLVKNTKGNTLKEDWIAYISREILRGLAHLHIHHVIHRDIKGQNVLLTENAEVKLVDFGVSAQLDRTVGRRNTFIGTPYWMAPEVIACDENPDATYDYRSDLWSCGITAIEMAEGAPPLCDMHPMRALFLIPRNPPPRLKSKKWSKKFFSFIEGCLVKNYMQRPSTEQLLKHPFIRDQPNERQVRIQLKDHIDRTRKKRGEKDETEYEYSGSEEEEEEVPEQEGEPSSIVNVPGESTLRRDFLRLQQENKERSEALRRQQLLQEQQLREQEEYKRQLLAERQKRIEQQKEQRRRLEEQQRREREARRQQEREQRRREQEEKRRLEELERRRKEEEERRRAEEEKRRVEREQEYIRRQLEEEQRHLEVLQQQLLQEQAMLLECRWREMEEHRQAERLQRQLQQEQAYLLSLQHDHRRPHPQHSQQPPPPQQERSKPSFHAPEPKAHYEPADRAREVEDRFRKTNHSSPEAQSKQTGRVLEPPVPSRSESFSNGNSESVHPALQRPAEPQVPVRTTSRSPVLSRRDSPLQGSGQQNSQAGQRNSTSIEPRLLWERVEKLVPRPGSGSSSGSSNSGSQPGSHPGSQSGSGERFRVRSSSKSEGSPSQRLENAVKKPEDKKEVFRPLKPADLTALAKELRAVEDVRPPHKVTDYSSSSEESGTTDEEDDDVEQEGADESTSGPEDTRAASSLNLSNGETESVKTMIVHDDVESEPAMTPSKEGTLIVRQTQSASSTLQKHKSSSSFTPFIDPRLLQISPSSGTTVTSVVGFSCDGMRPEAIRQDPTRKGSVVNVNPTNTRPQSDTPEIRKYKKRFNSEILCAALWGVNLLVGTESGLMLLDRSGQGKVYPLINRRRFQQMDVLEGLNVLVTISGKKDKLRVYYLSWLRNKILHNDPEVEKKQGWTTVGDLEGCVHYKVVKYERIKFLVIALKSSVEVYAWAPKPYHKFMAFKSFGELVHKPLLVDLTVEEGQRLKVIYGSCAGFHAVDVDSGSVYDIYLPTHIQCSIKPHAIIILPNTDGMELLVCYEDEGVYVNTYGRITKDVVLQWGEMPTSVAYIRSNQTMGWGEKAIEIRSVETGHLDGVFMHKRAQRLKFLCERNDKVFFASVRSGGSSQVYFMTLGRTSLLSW
Sequence of UniProt P30530 (whole entry, looked up): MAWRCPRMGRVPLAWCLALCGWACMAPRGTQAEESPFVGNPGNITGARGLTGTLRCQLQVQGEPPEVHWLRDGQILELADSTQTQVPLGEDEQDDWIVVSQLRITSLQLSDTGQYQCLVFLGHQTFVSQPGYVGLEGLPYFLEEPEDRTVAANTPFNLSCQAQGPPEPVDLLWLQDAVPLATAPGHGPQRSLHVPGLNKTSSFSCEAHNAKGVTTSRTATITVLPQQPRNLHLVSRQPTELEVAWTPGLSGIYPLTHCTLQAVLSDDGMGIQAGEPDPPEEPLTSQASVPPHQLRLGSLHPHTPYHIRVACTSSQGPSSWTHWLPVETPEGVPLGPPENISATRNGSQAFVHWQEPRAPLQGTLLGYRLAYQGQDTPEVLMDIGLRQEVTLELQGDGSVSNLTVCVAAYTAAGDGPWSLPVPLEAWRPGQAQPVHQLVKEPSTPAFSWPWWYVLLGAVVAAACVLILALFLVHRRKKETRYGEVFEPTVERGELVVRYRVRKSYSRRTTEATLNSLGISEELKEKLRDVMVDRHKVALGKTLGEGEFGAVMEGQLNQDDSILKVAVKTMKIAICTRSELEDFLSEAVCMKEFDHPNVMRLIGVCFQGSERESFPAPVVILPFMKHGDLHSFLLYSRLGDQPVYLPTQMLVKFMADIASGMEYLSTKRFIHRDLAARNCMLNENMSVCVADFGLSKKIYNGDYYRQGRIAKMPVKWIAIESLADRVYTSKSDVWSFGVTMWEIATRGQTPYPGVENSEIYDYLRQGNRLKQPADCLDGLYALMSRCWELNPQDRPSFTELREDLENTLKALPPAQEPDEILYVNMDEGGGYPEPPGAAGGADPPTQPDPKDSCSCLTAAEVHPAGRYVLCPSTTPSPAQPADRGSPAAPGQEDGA
Sequence of UniProt Q9H2X6 (whole entry, looked up): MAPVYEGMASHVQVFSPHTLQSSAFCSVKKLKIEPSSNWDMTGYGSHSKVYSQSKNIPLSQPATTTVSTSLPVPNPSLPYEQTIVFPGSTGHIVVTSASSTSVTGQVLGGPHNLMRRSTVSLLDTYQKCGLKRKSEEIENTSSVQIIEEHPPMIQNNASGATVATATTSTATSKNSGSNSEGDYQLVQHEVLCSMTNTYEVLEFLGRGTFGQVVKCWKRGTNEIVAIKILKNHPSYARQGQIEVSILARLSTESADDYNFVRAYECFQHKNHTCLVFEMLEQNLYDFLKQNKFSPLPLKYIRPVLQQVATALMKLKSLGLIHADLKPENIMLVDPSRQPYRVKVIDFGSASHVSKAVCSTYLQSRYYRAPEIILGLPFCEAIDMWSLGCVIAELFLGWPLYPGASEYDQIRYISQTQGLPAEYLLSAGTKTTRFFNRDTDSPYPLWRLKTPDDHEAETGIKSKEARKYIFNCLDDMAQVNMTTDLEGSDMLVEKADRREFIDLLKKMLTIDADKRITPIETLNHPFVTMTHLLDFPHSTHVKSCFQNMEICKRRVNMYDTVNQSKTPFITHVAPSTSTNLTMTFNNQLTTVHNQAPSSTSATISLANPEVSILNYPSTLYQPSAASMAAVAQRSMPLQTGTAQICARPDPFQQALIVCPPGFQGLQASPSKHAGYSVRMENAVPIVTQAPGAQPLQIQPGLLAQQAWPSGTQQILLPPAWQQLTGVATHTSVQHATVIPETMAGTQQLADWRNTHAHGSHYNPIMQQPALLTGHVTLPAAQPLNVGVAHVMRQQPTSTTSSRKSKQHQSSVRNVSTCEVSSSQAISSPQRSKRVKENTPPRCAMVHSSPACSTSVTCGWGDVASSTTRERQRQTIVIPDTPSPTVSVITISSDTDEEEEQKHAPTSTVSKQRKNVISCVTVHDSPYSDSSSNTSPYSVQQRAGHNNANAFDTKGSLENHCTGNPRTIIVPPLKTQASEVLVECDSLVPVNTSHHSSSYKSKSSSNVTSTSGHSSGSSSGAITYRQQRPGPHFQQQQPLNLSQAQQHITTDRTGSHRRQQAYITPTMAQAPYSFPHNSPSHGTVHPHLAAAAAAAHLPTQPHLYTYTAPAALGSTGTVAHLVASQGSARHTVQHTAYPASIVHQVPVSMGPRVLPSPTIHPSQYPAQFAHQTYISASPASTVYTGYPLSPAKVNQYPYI
Sequence of UniProt Q8NE63 (whole entry, looked up): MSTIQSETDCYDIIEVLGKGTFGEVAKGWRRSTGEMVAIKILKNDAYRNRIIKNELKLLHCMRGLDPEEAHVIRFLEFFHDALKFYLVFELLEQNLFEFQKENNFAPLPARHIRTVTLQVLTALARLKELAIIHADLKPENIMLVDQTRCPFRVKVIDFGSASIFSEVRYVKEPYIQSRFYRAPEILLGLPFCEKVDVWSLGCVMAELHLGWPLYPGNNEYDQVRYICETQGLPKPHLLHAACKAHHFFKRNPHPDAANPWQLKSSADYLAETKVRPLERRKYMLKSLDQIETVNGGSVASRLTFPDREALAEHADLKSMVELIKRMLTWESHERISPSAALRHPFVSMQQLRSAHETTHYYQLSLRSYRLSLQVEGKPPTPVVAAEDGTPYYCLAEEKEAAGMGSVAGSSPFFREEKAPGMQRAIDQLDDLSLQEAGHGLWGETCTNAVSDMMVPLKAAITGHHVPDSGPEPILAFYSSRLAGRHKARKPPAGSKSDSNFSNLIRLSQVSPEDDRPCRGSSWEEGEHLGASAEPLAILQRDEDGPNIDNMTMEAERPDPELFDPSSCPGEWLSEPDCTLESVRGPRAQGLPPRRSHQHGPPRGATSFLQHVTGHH
Sequence of UniProt Q16644 (whole entry, looked up): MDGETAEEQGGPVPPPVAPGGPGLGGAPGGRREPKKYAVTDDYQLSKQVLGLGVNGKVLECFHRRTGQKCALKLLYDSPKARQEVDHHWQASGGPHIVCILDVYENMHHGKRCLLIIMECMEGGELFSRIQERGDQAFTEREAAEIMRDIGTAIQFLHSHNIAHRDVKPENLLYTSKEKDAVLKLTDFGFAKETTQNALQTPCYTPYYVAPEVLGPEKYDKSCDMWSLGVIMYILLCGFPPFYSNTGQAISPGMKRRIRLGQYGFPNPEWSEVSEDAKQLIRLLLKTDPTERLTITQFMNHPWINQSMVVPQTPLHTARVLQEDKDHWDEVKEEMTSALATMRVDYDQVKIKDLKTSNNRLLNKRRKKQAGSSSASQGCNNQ

Sample 1
Cell line: HaCaT
Concentration: 100 µM
Time: 60 h
Structure (SMILES) | viability [%]
CCOC(=O)N[C@@H]1CC[C@@H]2[C@@H](C1)C[C@H]1C(=O)O[C@H](C)[C@H]1[C@H]2/C=C/c1ccc(-c2cccc(F)c2)cn1 | 116
CC1CCC(C(C)C)C(O)C1 (racemic) | 143
C=C1CC[C@@H]2[C@](C)(CO)[C@H](O)CC[C@@]2(C)[C@@H]1C/C=C1/C(=O)OC[C@H]1O | 18.8
Cn1cnc2c1c(=O)[nH]c(=O)n2C | 130
CCOc1cc(CC(=O)N[C@@H](CC(C)C)c2ccccc2N2CCCCC2)ccc1C(=O)O | 121
Cc1ccc(/C(=C\CN2CCCC2)c2ccccn2)cc1 | 130
CC(=O)SCC(Cc1ccccc1)C(=O)NCC(=O)OCc1ccccc1 (stereo not drawn) | 146

Sample 2
Organism: Sarcocystis neurona
Effect on: parasite growth
Concentration: 10 µM
Time: 96 h
Relative to: untreated
Structure (SMILES) | log2 fold change
Cc1ccc(-c2cc(C(F)(F)F)nn2-c2ccc(S(N)(=O)=O)cc2)cc1 | 0.36
CC1(C)O[C@@H]2C[C@H]3[C@@H]4C[C@H](F)C5=CC(=O)C=C[C@]5(C)[C@H]4[C@@H](O)C[C@]3(C)[C@]2(C(=O)CO)O1 | 0.4
COc1cc2c(cc1OC)C(=O)C(CC1CCN(Cc3ccccc3)CC1)C2 (stereo not drawn) | 0.37
CC[C@H](C)C(=O)O[C@H]1C[C@@H](C)C=C2C=C[C@H](C)[C@H](CC[C@@H]3C[C@@H](O)CC(=O)O3)[C@H]21 | 0.28
Cc1[nH]cnc1CN1CCc2c(c3ccccc3n2C)C1=O | 0.38
CC(C)OC(=O)CCC/C=C\C[C@@H]1[C@@H](CC[C@@H](O)CCc2ccccc2)[C@H](O)C[C@@H]1O | 0.26
Cc1c(O)cccc1C(=O)N[C@@H](CSc1ccccc1)[C@H](O)CN1C[C@H]2CCCC[C@H]2C[C@H]1C(=O)NC(C)(C)C | -1.47
N[C@@H](Cc1cc(I)c(Oc2cc(I)c(O)c(I)c2)c(I)c1)C(=O)O | 0.44
CCCCC[C@H](O)/C=C/[C@H]1[C@H](O)CC(=O)[C@@H]1CCCCCCC(=O)O | 0.38
CC#C[C@]1(O)CC[C@H]2[C@@H]3CCC4=CC(=O)CCC4=C3[C@@H](c3ccc(N(C)C)cc3)C[C@@]21C | -0.13

Sample 3
Target: Diamine acetyltransferase 1 (Homo sapiens, UniProt P21673)
Mode: inhibitor
Concentration: 10 µM
Relative to: control
Target sequence (P21673 1-171): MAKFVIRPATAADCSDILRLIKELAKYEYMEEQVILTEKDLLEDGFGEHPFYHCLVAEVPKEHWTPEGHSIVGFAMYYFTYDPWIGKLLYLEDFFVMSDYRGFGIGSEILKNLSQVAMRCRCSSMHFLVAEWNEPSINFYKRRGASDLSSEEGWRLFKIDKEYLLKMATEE
Compound | remaining activity
O=C(O)[C@@H](O)[C@H](O)C(=O)O | 97.2%
COc1cc2cc(Oc3ccc4ccc(=O)oc4c3)c(=O)oc2cc1O | 85.6%
COc1ccc(-c2coc3c([C@@H]4O[C@H](CO)[C@@H](O)[C@H](O)[C@H]4O)c(O)ccc3c2=O)cc1 | 90.2%
N[C@@H](Cc1c[nH]c2ccccc12)C(=O)O | 101%
O=C(/C=C/c1ccc(O)c(O)c1)O[C@@H]1C[C@@](O)(C(=O)O)C[C@@H](O)[C@@H]1O | 103%
CO[C@@H]1[C@H](O)[C@@H](CO)O[C@H]1n1cnc2c(N)ncnc21 | 99.1%
CC(C)CCCC(C)CCCC(C)CCCCC(C)CCCC(C)CCCC(C)C (stereo not drawn) | 85.4%
COc1cc(O)c2c(=O)c(OC)c(-c3ccc(O)cc3)oc2c1 | 93.8%
CC(=O)O[C@@H]1C[C@H](C)CC[C@H]1C(C)C | 100%

Sample 4
SMILES: O=C1NC(=O)C(c2c[nH]c3ccccc23)=C1c1c[nH]c2ccccc12
Effect on: enzyme activity
Mode: inhibitor
Concentration: 0.5 µM
Relative to: control
target | remaining activity
RPS6KA6 (Homo sapiens, UniProt Q9UK32) | 19.2%
AXL (Homo sapiens, UniProt P30530) | 103%
HIPK4 (Homo sapiens, UniProt Q8NE63) | 109%
EPHB4 (Homo sapiens, UniProt P54760) | 88.5%
STK16 (Homo sapiens, UniProt O75716) | 94.2%
STK17A (Homo sapiens, UniProt Q9UEE5) | 92.2%
Cyclin-dependent kinase 6, with cyclin D3 (CDK6, Homo sapiens, UniProt Q00534) | 103%
MAPKAPK3 (Homo sapiens, UniProt Q16644) | 90.5%
WNK3 (Homo sapiens, UniProt Q9BYP7) | 98.3%
CAMK2B (Homo sapiens, UniProt Q13554) | 96.9%
RPS6KA5 (Homo sapiens, UniProt O75582) | 62%
Cyclin-dependent kinase 4, with cyclin D3 (CDK4, Homo sapiens, UniProt P11802) | 89.8%
TSSK2 (Homo sapiens, UniProt Q96PF2) | 110%
EPHA4 (Homo sapiens, UniProt P54764) | 87.6%
PHKG1 (Homo sapiens, UniProt Q16816) | 74.9%
PDPK1 (Homo sapiens, UniProt O15530) | 96.7%
SRMS (Homo sapiens, UniProt Q9H3Y6) | 82.4%
HIPK2 (Homo sapiens, UniProt Q9H2X6) | 104%
BLK (Homo sapiens, UniProt P51451) | 93.7%
MAP4K4 (Homo sapiens, UniProt O95819) | 58.5%
EPHB1 (Homo sapiens, UniProt P54762) | 83.1%
DYRK3 (Homo sapiens, UniProt O43781) | 101%
Cyclin-dependent kinase 1, with cyclin B (CDK1, Homo sapiens, UniProt P06493) | 96.5%

Mixed results
Structure (SMILES) | cell line | assay | conditions | scale | measurement | value
Cn1cncc1[C@@](O)(COc1ccc(C#N)cc1-c1ccc(OC(F)(F)F)cc1)c1ccc(C#N)cc1 | patient-derived normal-adjacent epithelium organoids |  | 1 µM | relative to: DMSO control | viability | 79%
CC(=O)Nc1c(F)cc(C(=O)N[C@H]2CC[C@H](O)CC2)cc1O[C@@H](C)c1ccccc1 | HEK293T | high-content imaging | concentration not given, 24 h, recommended concentration |  | increased mitochondrial mass | 74%

A few entries again (sample 4):
target | remaining activity
PDPK1 (Homo sapiens, UniProt O15530) | 96.7%
Cyclin-dependent kinase 4, with cyclin D3 (CDK4, Homo sapiens, UniProt P11802) | 89.8%
Cyclin-dependent kinase 1, with cyclin B (CDK1, Homo sapiens, UniProt P06493) | 96.5%
WNK3 (Homo sapiens, UniProt Q9BYP7) | 98.3%
EPHA4 (Homo sapiens, UniProt P54764) | 87.6%
STK17A (Homo sapiens, UniProt Q9UEE5) | 92.2%
TSSK2 (Homo sapiens, UniProt Q96PF2) | 110%
